Literature values as cited in several papers.
Protocols differ between the studies behind these lines. ± marks the error that the study gave. Values after ≈ are worked out from the molar mass of the structure shown.
Genome polyprotein NS2B-NS3 protease: Genome polyprotein, NS2B-NS3 protease (dengue virus type 2, UniProt P29990)
ADORA1: Adenosine receptor A1 (ADORA1, Homo sapiens, UniProt P30542)

Substance = O=C(NCc1cc(Br)cc(Br)c1OC(=O)c1ccccc1[N+](=O)[O-])c1ccccc1Cl; target or system = Transcriptional activator protein LasR (lasR, Pseudomonas aeruginosa, UniProt P25084); assay = reporter gene, agonist, lasI-luxCDABE reporter; system = PAO-JP2; quantity = EC50; value = 40 nM
Substance = CC[C@H](C)[C@H](NC(=O)[C@@H](NC(=O)[C@H](C)NC(=O)[C@@H](NC(=O)[C@H](C)NC(=O)[C@@H]1CCCN1C(=O)CNC(=O)[C@H](C)NC(=O)[C@H](CC(N)=O)NC(=O)[C@H](CCCCN)NC(=O)[C@@H](NC(=O)[C@H](C)NC(=O)[C@H](CC(N)=O)NC(=O)[C@H](CCCNC(=N)N)NC(=O)[C@@H](NC(=O)[C@H](CCCNC(=N)N)NC(=O)[C@H](CCCNC(=N)N)NC(=O)[C@@H](NC(=O)[C@@H](NC(=O)[C@H](CCCCN)NC(=O)[C@H](CCC(=O)O)NC(=O)[C@H](CC(C)C)NC(=O)[C@H](CCCCN)NC(=O)[C@H](CCCCN)NC(=O)[C@H](CC(C)C)NC(=O)[C@@H]1CCCN1C(=O)[C@H](CCCCN)NC(=O)[C@H](Cc1c[nH]c2ccccc12)NC(=O)[C@@H](N)CCCNC(=N)N)C(C)C)C(C)C)C(C)C)C(C)C)C(C)C)C(C)C)C(=O)NCC(=O)N[C@@H](CC(=O)O)C(=O)O; target or system = Pseudomonas aeruginosa; quantity = MIC; value = 16 µM (≈ 55.5 µg/mL)
Substance = NC(=O)c1cccc(NC(=O)C(NC(=O)c2ccc(Oc3ccccc3)cc2)c2ccc(OCc3ccccc3)cc2)c1 (centres unmarked); target or system = Genome polyprotein NS2B-NS3 protease; assay = DENV-2 protease cell reporter; system = HeLa; quantity = EC50; value = 730 nM
Substance = OC[C@@]12C[C@@H]1[C@@H](n1cnc3c(N[C@H](C4CCC4)C4CC4)nc(Cl)nc31)[C@H](O)[C@@H]2O; target or system = ADORA1; assay = binding; conditions = together with: [3H]R-PIA; quantity = Ki; value = 298 ± 4 nM
Substance = CCCCCC(=O)NC(C(=O)NCc1ccc(NC(=N)N)cc1)c1ccc(OCc2ccccc2)cc1 (centres unmarked); target or system = Genome polyprotein NS2B-NS3 protease; assay = DENV-2 protease cell reporter; system = HeLa; quantity = EC50; value = 490 nM
Substance = COc1ccc(/C=C/C(=O)NCCc2c[nH]c3ccccc23)cc1OC; target or system = Acetylcholinesterase (ACHE, Homo sapiens, UniProt P22303); quantity = IC50; value = 11500 nM
Substance = CC(C)[C@@H](Nc1nc(Cl)nc2c1ncn2[C@H]1[C@H](O)[C@H](O)[C@]2(CO)C[C@H]12)C1CC1; target or system = ADORA1; assay = binding; conditions = together with: [3H]R-PIA; quantity = Ki; value = 103 ± 7 nM
Substance = CC[C@@H]1CN2CCc3c([nH]c4cccc(O)c34)[C@@H]2C[C@@H]1/C(=C\OC)C(=O)OC; target or system = Mu-type opioid receptor (OPRM1, Homo sapiens, UniProt P35372); assay = agonist; quantity = EC50; value = 681 ± 379 nM
Substance = PVDPFEAQWAALENK; target or system = MDM2 SWIB domain; assay = binding; system = peptide; quantity = Kd; value = 3000 nM
Substance = Cc1noc(C)c1-c1cc(N)c2ncn(Cc3ccc(C4CO4)cc3)c2c1 (centres unmarked); target or system = Bromodomain-containing protein 4, BD2 (BRD4, Homo sapiens, UniProt O60885); assay = biochemical; conditions = bromodomain 2; quantity = IC50; value = 50 nM
Substance = COC(=O)OC1C(=O)C2(C)C(O)CC3OCC3(OC(C)=O)C2C(OC(=O)c2cccc(OC(F)(F)F)c2)C2(O)CC(OC(=O)C(O)C(C=C(C)C)NC(=O)OC(C)(C)C)C(C)=C1C2(C)C (centres unmarked); target or system = MCF7; assay = cytotoxicity; quantity = IC50; value = 0.32 nM
Substance = CNC(=O)[C@@]12C[C@@H]1[C@@H](n1cnc3c(NC(C4CC4)C4CC4)nc(Cl)nc31)[C@H](O)[C@@H]2O; target or system = Adenosine receptor A2a (ADORA2A, Homo sapiens, UniProt P29274); assay = binding; conditions = together with: [3H]CGS21680; quantity = Ki; value = 4320 nM
Substance = CC(=O)OC12COC1CC(O)C1(C)C(=O)C(OC(=O)N(C)C)C3=C(C)C(OC(=O)C(O)C(C=C(C)C)NC(=O)OC(C)(C)C)CC(O)(C(OC(=O)c4cccc(OC(F)(F)F)c4)C21)C3(C)C (centres unmarked); target or system = LCC6-WT; assay = cytotoxicity; quantity = IC50; value = 0.74 nM
Substance = COc1cc2c(cc1O)C(CCc1ccc(Cl)cc1)N(C)CC2 (centres unmarked); target or system = Glutamate NMDA receptor; Grin1/Grin2b (Grin1/Grin2b, Rattus norvegicus, UniProt P35439+Q00960); assay = binding, competitive binding; quantity = Kd; value = 20 ± 3 nM

Some of these lines once more:
Substance = NC(=O)c1cccc(NC(=O)C(NC(=O)c2ccc(Oc3ccccc3)cc2)c2ccc(OCc3ccccc3)cc2)c1 (centres unmarked); target or system = Genome polyprotein NS2B-NS3 protease; assay = DENV-2 protease cell reporter; system = HeLa; quantity = EC50; value = 730 nM
Substance = OC[C@@]12C[C@@H]1[C@@H](n1cnc3c(N[C@H](C4CCC4)C4CC4)nc(Cl)nc31)[C@H](O)[C@@H]2O; target or system = ADORA1; assay = binding; conditions = together with: [3H]R-PIA; quantity = Ki; value = 298 ± 4 nM
